Assay results collected from several papers.
Each line is one published result; not all experiments were run side by side. ± marks the error that the study gave.
Technique: steady-state kinetics
B1: ltaE H83N (Escherichia coli, UniProt P75823); chain MIDLRSDTVTRPSRAMLEAMMAAPVGDDVYGDDPTVNALQDYAAELSGKEAAIFLPTGTQANLVALLSHCERGEEYIVGQAANNYLFEAGGAAVLGSIQPQPIDAAADGTLPLDKVAMKIKPDDIHFARTKLLSLENTHNGKVLPREYLKEAWEFTRERNLALHVDGARIFNAVVAYGCELKEITQYCDSFTICLSKGLGTPVGSLLVGNRDYIKRAIRWRKMTGGGMRQSGILAAAGIYALKNNVARLQEDHDNAAWMAEQLREAGADVMRQDTNMLFVRVGEENAAALGEYMKARNVLINASPIVRLVTHLDVSREQLAEVAAHWRAFLAR
B2: protein (Sulfurisphaera tokodaii, UniProt Q96XE7); chain MIILAFDIFGTVLDTSTVIQEFRNKQLEYTWLLTIMGKYVEFEEITKITLRYILKVRGEESKFDEELNKWKNLKAYEDTKYLKEISEIAEVYALSNGSINEVKQHLERNGLLRYFKGIFSAESVKEYKPSPKVYKYFLDSIGAKEAFLVSSNAFDVIGAKNAGMRSIFVNRKNTIVDPIGGKPDVIVNDFKELYEWILRYK
B3: sacB Y439F (Priestia megaterium, UniProt D5DC07); chain KGNDSKDFNNSYGISHITRDNMVKIPQQQNSDQFKVPAFDESTIKNIASAKGKNASGNTIDLDVWDSWPLQNADGTVATYHGYQIVFALAGDPKDSNDTSVYLFYKKAGDKSIDSWKNAGRVFKDSDKFVPNDPHLKNQTQEWSGSGTLTKDGKVRLFYTDYSGKQYGKQTLTTAQVNMSQPNDNTLKVDGVEDYKSIFDGDGKIYQTVQQFIDEGGYDTGDNHTLRDPHYIEDNGHKYLVFEANTGTEDGYQGEDSLYNRAYYGGNNPFFQSEKKKLLEGSNKEKASLANGALGIIELNDDYTLKKVMKPLITSNTVTDEIERANIFKKDGKWYLFTDSRGSKMTIDGIGQDDVYMLGYVSNTLTGKYKPLNDTGLVLHMDLDPNDKTFTYSHFAVPQTKGDNVVITSFMTNRGFYEDNHSTFAPSFLVNIDGSKTSVVKDRVLEQGQLTVDED
B4: Saccharopine reductase Y99F (Saccharomyces cerevisiae, UniProt P38999); chain MGKNVLLLGSGFVAQPVIDTLAANDDINVTVACRTLANAQALAKPSGSKAISLDVTDDSALDKVLADNDVVISLIPYTFHPNVVKSAIRTKTDVVTSSFISPALRELEPEIVKAGITVMNEIGLDPGIDHLYAVKTIDEVHRAGGKLKSFLSYCGGLPAPEDSDNPLGYKFSWSSRGVLLALRNSAKYWKDGKIETVSSEDLMATAKPYFIYPGYAFVCYPNRDSTLFKDLYHIPEAETVIRGTLRYQGFPEFVKALVDMGMLKDDANEIFSKPIAWNEALKQYLGAKSTSKEDLIASIDSKATWKDDEDRERILSGFAWLGLFSDAKITPRGNALDTLCARLEELMQYEDNERDMVVLQHKFGIEWADGTTETRTSTLVDYGKVGGYSSMAATVGYPVAIATKFVLDGTIKGPGLLAPYSPEINDPIMKELKDKYGIYLKEKTVA
B5: CDS1 (Homo sapiens, UniProt Q92903); chain MLELRHRGSCPGPREAVSPPHREGEAAGGDHETESTSDKETDIDDRYGDLDSRTDSDIPEIPPSSDRTPEILKKALSGLSSRWKNWWIRGILTLTMISLFFLIIYMGSFMLMLLVLGIQVKCFHEIITIGYRVYHSYDLPWFRTLSWYFLLCVNYFFYGETVADYFATFVQREEQLQFLIRYHRFISFALYLAGFCMFVLSLVKKHYRLQFYMFAWTHVTLLITVTQSHLVIQNLFEGMIWFLVPISSVICNDITAYLFGFFFGRTPLIKLSPKKTWEGFIGGFFSTVVFGFIAAYVLSKYQYFVCPVEYRSDVNSFVTECEPSELFQLQTYSLPPFLKAVLRQERVSLYPFQIHSIALSTFASLIGPFGGFFASGFKRAFKIKDFANTIPGHGGIMDRFDCQYLMATFVHVYITSFIRGPNPSKVLQQLLVLQPEQQLNIYKTLKTHLIEKGILQPTLKV
B6: ALDH4A1 S352A (Homo sapiens, UniProt P30038); chain TGAGLRWKHTSSLKVANEPVLAFTQGSPERDALQKALKDLKGRMEAIPCVVGDEEVWTSDVQYQVSPFNHGHKVAKFCYADKSLLNKAIEAALAARKEWDLKPIADRAQIFLKAADMLSGPRRAEILAKTMVGQGKTVIQAEIDAAAELIDFFRFNAKYAVELEGQQPISVPPSTNSTVYRGLEGFVAAISPFNFTAIGGNLAGAPALMGNVVLWKPSDTAMLASYAVYRILREAGLPPNIIQFVPADGPLFGDTVTSSEHLCGINFTGSVPTFKHLWKQVAQNLDRFHTFPRLAGECGGKNFHFVHRSADVESVVSGTLRSAFEYGGQKCSACARLYVPHSLWPQIKGRLLEEHSRIKVGDPAEDFGTFFSAVIDAKSFARIKKWLEHARSSPSLTILAGGKCDDSVGYFVEPCIVESKDPQEPIMKEEIFGPVLSVYVYPDDKYKETLQLVDSTTSYGLTGAVFSQDKDVVQEATKVLRNAAGNFYINDKSTGSIVGQQPFGGARASGTNDKPGGPHYILRWTSPQVIKETHKPLGDWSYAYMQ
B7: LYPLA1 (Homo sapiens, UniProt O75608); chain MCGNNMSTPLPAIVPAARKATAAVIFLHGLGDTGHGWAEAFAGIRSSHIKYICPHAPVRPVTLNMNVAMPSWFDIIGLSPDSQEDESGIKQAAENIKALIDQEVKNGIPSNRIILGGFSQGGALSLYTALTTQQKLAGVTALSCWLPLRASFPQGPIGGANRDISILQCHGDCDPLVPLMFGSLTVEKLKTLVNPANVTFKTYEGMMHSSCQQEMMDVKQFIDKLLPPID
B8: MCAT R178Q (Homo sapiens, UniProt Q8IVS2); chain GQGSQVVGMGRGLLNYPRVRELYAAARRVLGYDLLELSLHGPQETLDRTVHCQPAIFVASLAAVEKLHHLQPSVIENCVAAAGFSVGEFAALVFAGAMEFAEGLYAVKIQAEAMQEASEAVPSGMLSVLGQPQSKFNFACLEAREHCKSLGIENPVCEVSNYLFPDCRVISGHQEALRFLQKNSSKFHFRRTRMLPVSGAFHTRLMEPAVEPLTQALKAVDIKKPLVSVYSNVHAHRYRHPGHIHKLLAQQLVSPVKWEQTMHAIYERKKGRGFPQTFEVGPGRQLGAILKSCNMQAWKSYSAVDVL
B9: enzyme (Listeria monocytogenes, UniProt Q8Y829); chain MKKVITYGTFDLLHWGHIHLLKRAKALGDYLIVAISSDEFNRIKHKEAYHSYEHRKLIIEAIRYVDEVIPENNWEQKRDDIEKYGIDVFVMGDDWEGEFDFLKDVCEVVYLPRTEGISTSQIKDELK
B10: putA E1012A (Rhodobacter capsulatus, UniProt D5AN87); chain MTDLSALGPKAKFAPEAEVLQALVAQAALPQPQLDRIAARGADLVARIRAEAKPSLMEHFLAQYGLSTREGVALMCLAEAMLRVPDTATIDALIEDKIAPSDWGKHLGTAASSLVNASTWALMLTGKVLDDGAGGIAGTLRGAMRRLGEPVIRAAVGQAMREMGRQFVLGETIEKALERAEKREAEGYTFSYDMLGEAALTAADAERYRLAYAQAITAIGKAATRGSIAANPGISIKLSALHPRYEVAQEARVMAELVPVVRDLARAAARAGIALHIDAEEQDRLALSLRVMAAVIADPETAGWEGFGAVVQAYGKRAGAAIDALAAMARAAGRRINIRLVKGAYWDAEMKRAQVEGHPGFPLFTSKTGTDVAYICLAAKLFGLNDCIYPQFATHNAHTVAAVLEMAAGRPFEFQRLHGMGARLHDIVLRETGGRCRIYAPVGAHRDLLAYLVRRLLENGANSSFVNQIVNESVPPAEVAACPFAALPTARAPRGLLAPADLFGAGRVNAQGFDLSDPEVLARIEAARDVTLPDAAPIVAGPVSGTLRPVRNPATGAVVAQVTEADAATVALALDAAQVWSAPAATRAAVLCRAADLYEENFGPIFAALAQEAGKTLGDAVSELREAVDFLRYYAAEGAADTRPPRGAVVAISPWNFPLAIFTGQVAAALMAGNAVLAKPAEQTPIIAALAVRLLHQAGVPETALQLLPGDGPTVGAALTRDPRVAGVVFTGSTETAQIIARAMAAHLAPGTPLIAETGGLNAMVVDSTALPEQAVRDVVASAFRSAGQRCSALRCLYVQDDIAPHLIGMLKGAMEELVSGDPARLSTDVGPVIDAEAKAGIETYLAANKARILHRSTAPEGGHFVAPALLQVGGIADLEREIFGPVLHLATFAAEDLPAVIAAINARGYGLTFGLHSRIDARVETVAETIRAGNIYVNRNQIGAVVGSQPFGGEGLSGTGPKAGGPLYLNRFYAPEPVVAVGGWTEAATPILPEARETQLDEIFLPGPTGALNRLTRHQRGPILCLGPGAEAASAQAAAVVALGGQAVQASGAVSPKALETLTPLAGVLWWGAAEMGRAYAQALAVRPGPLVPLITAKPDLAHVAHERHLCVDTTAAGGNAALLAG

PUT2 (Saccharomyces cerevisiae, UniProt P07275)
kcat (O=C(O)[C@@H]1CCC=N1; pH 7.5, 20 °C): 1.5 ± 0.3 s⁻¹

POLK (Homo sapiens, UniProt Q9UBT6)
kcat (Nc1ccn([C@H]2C[C@H](O)[C@@H](COP(=O)(O)OP(=O)(O)OP(=O)(O)O)O2)c(=O)n1; pH 7.5, 23 °C, MgCl2 5 mM, added: G template): 0.01 ± 0.001 s⁻¹

protein (UniProt M4ZR24)
kcat (O=c1ccn([C@@H]2O[C@H](CO)[C@@H](O)[C@H]2O)c(=O)[nH]1; phosphorolysis, single substrate, added: phosphate): 0.015 ± 0.00167 s⁻¹

B1 (ltaE H83N)
kcat (C[C@H](O)[C@H](N)C(=O)O; pH 7, 30 °C, potassium phosphate 20 mM, retro-aldol cleavage, added: PLP 500 µM): 1.28 s⁻¹

B2 (protein)
kcat (C[C@H](Cl)C(=O)O; pH 9.5, 70 °C): 0.00213 ± 8.7e-05 s⁻¹

B3 (sacB Y439F)
kcat (OC[C@H]1O[C@@](CO)(O[C@H]2O[C@H](CO)[C@@H](O)[C@H](O)[C@H]2O)[C@@H](O)[C@@H]1O; pH 6.6): 184 ± 7.6 s⁻¹

B4 (Saccharopine reductase Y99F)
kcat (N[C@@H](CCCCN[C@@H](CCC(=O)O)C(=O)O)C(=O)O; pH 9, 25 °C, added: saccharopine): 0.29 ± 0.01 s⁻¹

PRP43 (Saccharomyces cerevisiae, UniProt P53131)
kcat (O=c1ccn([C@@H]2O[C@H](COP(=O)(O)OP(=O)(O)OP(=O)(O)O)[C@@H](O)[C@H]2O)c(=O)[nH]1; pH 8): 9.7 ± 0.4 s⁻¹

B5 (CDS1)
kcat (CCCCC/C=C\C/C=C\CCCCCCCC(=O)O[C@H](COC(=O)CCCCCCCCCCCCCCCCC)COP(=O)(O)O; pH 8, not purified): 3.2 ± 0.2 s⁻¹

B6 (ALDH4A1 S352A)
kcat (O=C(O)[C@@H]1CCC=N1; pH 7, 20 °C, value for L-P5C, added: NAD+): 5 s⁻¹

ALDH7A1 (Homo sapiens, UniProt P49419)
kcat (N[C@@H](CCCC=O)C(=O)O; pH 8, 26 °C, added: NAD+ 2.5 mM): 0.3 ± 0.01 s⁻¹

B7 (LYPLA1)
kcat (CN(C)c1ccc(/N=N/c2ccc(C(=O)NCCCn3cc(CCCCCCCCCCCCCCCC(=O)OC[C@H](NC(=O)c4cc5ccc(O)cc5oc4=O)C(=O)N4CCOCC4)nn3)cc2)cc1; pH 7.4, 37 °C): 0.046 ± 0.004 s⁻¹

TylM1 (Streptomyces fradiae, UniProt P95748)
kcat (Cc1cn([C@H]2C[C@H](O)[C@@H](COP(=O)(O)OP(=O)(O)O[C@H]3O[C@H](C)[C@@H](O)[C@H](N)[C@H]3O)O2)c(=O)[nH]c1=O; 25 °C, added: SAM): 0.172 ± 0.004 s⁻¹

BaiA1 (Clostridium scindens, UniProt P07914)
kcat (C[C@H](CCC(=O)SCCNC(=O)CCNC(=O)[C@H](O)C(C)(C)COP(=O)(O)OP(=O)(O)OC[C@H]1O[C@@H](n2cnc3c(N)ncnc32)[C@H](O)[C@@H]1OP(=O)(O)O)[C@H]1CC[C@H]2[C@@H]3CC[C@@H]4CC(=O)CC[C@]4(C)[C@H]3CC[C@]12C; pH 8.7, 37 °C, added: NADH): 0.7 s⁻¹

B8 (MCAT R178Q)
kcat (CC(=O)SCCNC(=O)CCNC(=O)[C@H](O)C(C)(C)COP(=O)(O)OP(=O)(O)OC[C@H]1O[C@@H](n2cnc3c(N)ncnc32)[C@H](O)[C@@H]1OP(=O)(O)O; pH 6.8, 20 °C, labelled substrate, added: holo-ACP 20 µM): 0.00617 ± 0.0005 s⁻¹

B9 (enzyme)
kcat (O=P(O)(O)OC[C@H](O)CO; pH 8, 37 °C, apparent): 4.15 s⁻¹

B10 (putA E1012A)
kcat (O=C(O)[C@@H]1CCCN1; pH 8, 23 °C): 19.8 ± 0.7 s⁻¹
